Published values gathered from unrelated publications.
A part holds a random share of what one study measured. Substitutions count along the parent as printed.

Study 1 — method: protein-binding microarray; form: double-stranded DNA, one strand shown; matrix: in vitro; tested at: 2540 nM top; notes: 60-bp whole probe; together with: salmon DNA 0.4 mg/ml; reference: random background probes; reading: higher = stronger binding; constant ends, left off below: GCCTAGCAC … GTCTTGATTCGCTTGACGCTGCTG
Target: Interferon regulatory factor 3, full length, phosphomimetic (IRF3, Homo sapiens, UniProt Q14653, residues 1-427, S386D/S396D/S398D/S402D/T404D/S405D)
UniProt Q14653, sequence (whole entry, unmodified, looked up): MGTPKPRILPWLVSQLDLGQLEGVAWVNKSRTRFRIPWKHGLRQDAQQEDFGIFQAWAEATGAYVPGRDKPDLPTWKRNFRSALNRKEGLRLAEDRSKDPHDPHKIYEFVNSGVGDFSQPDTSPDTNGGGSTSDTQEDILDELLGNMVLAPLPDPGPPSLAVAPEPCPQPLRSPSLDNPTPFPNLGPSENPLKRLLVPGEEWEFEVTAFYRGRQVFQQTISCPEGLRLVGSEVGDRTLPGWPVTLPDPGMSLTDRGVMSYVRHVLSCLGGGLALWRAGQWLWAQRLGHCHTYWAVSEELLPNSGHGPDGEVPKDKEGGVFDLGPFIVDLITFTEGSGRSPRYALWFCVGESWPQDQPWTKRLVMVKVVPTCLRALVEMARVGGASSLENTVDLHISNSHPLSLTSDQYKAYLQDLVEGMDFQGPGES
For `GGAAATTCTCATTTCCAATTGTGCTAG`, “fitted relative affinity” read 2.35 z-score.
`TGCTTTCTCTTTCATTGCTGCGTGCTA`: “fitted relative affinity” 3.72 z-score.
`GACGGTTTCGGGTTTCCGGACGTGCTA`: “fitted relative affinity” 6.09 z-score.
`GACGGTATCTACTATCGGGACGTGCTA`: “fitted relative affinity” 0.396 z-score.
`GACGGACTGGGACTCGGGACGTGCTAG` — result for “fitted relative affinity”: -0.696 z-score.
For `GTGCTTCACAGAGGCGGCTGGTGCTAG`, “fitted relative affinity” read -0.689 z-score.
For `CACGATTTCGGGTTTCGAGACGTGCTA`, “fitted relative affinity” read 2.17 z-score.
For `TCATCTGTTCTTTTCAGACTGTGCTAG`, “fitted relative affinity” read 1.82 z-score.
For `TCACATACTAATTTCCAACTGTGCTAG`, “fitted relative affinity” read 1.43 z-score.
For `TTAGATATCATTTTCGATTAGTGCTAG`, “fitted relative affinity” read 3.25 z-score.
Under “fitted relative affinity”, `TTTGACATCTTCATCAACTAGTGCTAG` is recorded as 0.251 z-score.
Under “fitted relative affinity”, `CATATATTCACTATAGTGTGGTGCTAG` is recorded as 1.67 z-score.
For `TTAGGACTGGCTCTCGGTTAGTGCTAG`, “fitted relative affinity” read -0.938 z-score.
Under “fitted relative affinity”, `TTAGGTTTCGAGTATCGGTTAGTGCTA` is recorded as 3.35 z-score.
Under “fitted relative affinity”, `GACGGTATCGACTATCGGGCCGTGCTA` is recorded as 0.3 z-score.
`GACGATTCCAGTTTTGAGACGTGCTAG`: “fitted relative affinity” 1.5 z-score.
Under “fitted relative affinity”, `TCAATTCTGAATTCGAAACTGTGCTAG` is recorded as 1.66 z-score.
`TCAAAGATTCCTCTCACACTGTGCTAG`: “fitted relative affinity” 0.25 z-score.
For `TGTGTTGCAGAAACGCCATGGTGCTAG`, “fitted relative affinity” read 1.06 z-score.
For `TTGGATATCAGTTTCGATTAGTGCTAG`, “fitted relative affinity” read 4.37 z-score.
`GACGGTCTCGGTCTCGGGACGTGCTAG`: “fitted relative affinity” 1.52 z-score.
Under “fitted relative affinity”, `ATATATATCATTTAATTATAGTGCTAG` is recorded as 0.939 z-score.
For `GACGGTCTGGGTCTCGGGACGTGCTAG`, “fitted relative affinity” read -0.713 z-score.
`TCCAGGCTGGTCTCTAACTCAGTGCTA`: “fitted relative affinity” -0.388 z-score.
`AAAATTTTAACCCTTATTCTGTGCTAG` — result for “fitted relative affinity”: 0.629 z-score.

Study 2 — method: universal PBM; form: double-stranded DNA, one strand shown; matrix: in vitro; tested at: 600 nM; reading: higher = stronger binding
Target: Sal-like protein 4, full length isoform A (SALL4, Homo sapiens, UniProt Q9UJQ4, residues 1-1053)
UniProt Q9UJQ4, sequence (whole entry, looked up): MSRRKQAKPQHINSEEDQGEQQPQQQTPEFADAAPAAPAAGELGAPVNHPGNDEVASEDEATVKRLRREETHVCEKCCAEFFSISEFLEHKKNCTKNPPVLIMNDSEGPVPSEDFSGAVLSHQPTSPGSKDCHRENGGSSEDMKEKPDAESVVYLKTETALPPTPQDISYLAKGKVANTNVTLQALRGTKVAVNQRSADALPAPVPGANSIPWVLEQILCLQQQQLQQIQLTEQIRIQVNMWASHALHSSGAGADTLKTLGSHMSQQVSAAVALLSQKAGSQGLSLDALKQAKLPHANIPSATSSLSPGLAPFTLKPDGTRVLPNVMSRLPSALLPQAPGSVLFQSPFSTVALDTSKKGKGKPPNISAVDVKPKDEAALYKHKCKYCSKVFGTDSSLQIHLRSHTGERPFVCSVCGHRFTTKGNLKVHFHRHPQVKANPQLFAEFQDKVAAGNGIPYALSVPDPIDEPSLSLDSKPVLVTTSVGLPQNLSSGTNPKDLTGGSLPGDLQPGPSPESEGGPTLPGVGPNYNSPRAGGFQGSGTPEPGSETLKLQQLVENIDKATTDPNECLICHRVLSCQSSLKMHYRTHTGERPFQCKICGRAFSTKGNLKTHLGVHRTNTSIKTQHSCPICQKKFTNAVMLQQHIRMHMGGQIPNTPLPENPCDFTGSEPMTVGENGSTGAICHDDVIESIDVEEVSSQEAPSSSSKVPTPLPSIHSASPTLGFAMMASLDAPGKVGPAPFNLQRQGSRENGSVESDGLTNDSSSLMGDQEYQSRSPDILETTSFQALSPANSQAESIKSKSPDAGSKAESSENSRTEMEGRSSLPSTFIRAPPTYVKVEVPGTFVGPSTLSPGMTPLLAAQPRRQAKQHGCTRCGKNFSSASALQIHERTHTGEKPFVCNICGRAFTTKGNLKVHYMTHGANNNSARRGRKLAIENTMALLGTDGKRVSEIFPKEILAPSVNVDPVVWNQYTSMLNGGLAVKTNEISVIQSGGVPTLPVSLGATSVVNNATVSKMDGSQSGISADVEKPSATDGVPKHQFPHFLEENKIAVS
Notes: 8-mer, flanks averaged, mean of replicates
`ATTGAGGG` has an E-score of -0.128.
`ACCGAATG` has an E-score of 0.0545.
The E-score of `CAATCTAC` is reported as -0.0308.
The E-score of `GGGAGCGA` is reported as -0.231.
The E-score of `AATCAAAC` is reported as 0.149.
`GAAACCAC` gave an E-score of -0.164.
For `ATCGGGCG`, the E-score was -0.29.
`AACAGCCT` gave an E-score of -0.199.
With `CAATCAGA` the E-score was 0.0196.
For `ACACAGCC`, the E-score was -0.157.
With `ACGCCAAA` the E-score was -0.0729.
With `GCGCCACC` the E-score was -0.344.
`AGAAGGCC` gave an E-score of -0.145.
`GGAGAATA` has an E-score of 0.2.
`CCGCGTAG` has an E-score of -0.163.
`TCCTGAAA` has an E-score of 0.145.
`AGTTGCGA` gave an E-score of 0.0704.
`CTAGCGTC` gave an E-score of -0.18.
The E-score of `GACTCTAA` is reported as 0.107.
For `ATACTGTA`, the E-score was 0.189.
The E-score of `ACTCAGTG` is reported as -0.0452.

Study 3 — method: DHFR PCA, deep sequencing; matrix: yeast; together with: (+)-ABA 710 µM; reference: wild-type fitted maximum; reading: higher = stronger binding
Target: ABI1, truncated, D143A, DHFR fusion (Arabidopsis thaliana)
Notes: methotrexate growth selection, single substitutions
Starting sequence: PYL1, truncated, DHFR fusion (Arabidopsis thaliana); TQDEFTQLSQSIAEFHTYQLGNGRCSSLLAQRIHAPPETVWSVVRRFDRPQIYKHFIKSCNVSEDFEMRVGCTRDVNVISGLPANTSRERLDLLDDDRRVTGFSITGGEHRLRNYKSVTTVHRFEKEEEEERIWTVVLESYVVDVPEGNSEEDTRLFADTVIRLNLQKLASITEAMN
`V118R`: “relative binding score” 101%.
`L138W` — result for “relative binding score”: 42.6%.
`V143F`: “relative binding score” 43.6%.
`R45F`: “relative binding score” 0.722%.
For `F47H`, “relative binding score” read -21%.
`S104K` — result for “relative binding score”: 70.2%.
For `L164W`, “relative binding score” read 98.5%.
`L93C`: “relative binding score” 112%.
For `T135W`, “relative binding score” read -0.937%.
`N177I`: “relative binding score” 97.6%.
`N61F`: “relative binding score” 105%.
Under “relative binding score”, `L164I` is recorded as 101%.
`R123F`: “relative binding score” 94.3%.
For `Y53E`, “relative binding score” read -10.1%.
`I133G` — result for “relative binding score”: 115%.
`R132P`: “relative binding score” 112%.
`T160W`: “relative binding score” 91%.
For `N61H`, “relative binding score” read 98.5%.
Under “relative binding score”, `R98N` is recorded as 115%.

Study 4 — method: protein binding microarray; form: double-stranded DNA, one strand shown; matrix: in vitro; tested at: not given; reference: not given; reading: higher = stronger binding
Target: Histone acetyltransferase KAT6A, winged helix 2, GST fusion (KAT6A, Homo sapiens, UniProt Q92794, residues 85-181)
Notes: 8-mer, flanks averaged, mean of 2 arrays, mostly near background
Target sequence (chain): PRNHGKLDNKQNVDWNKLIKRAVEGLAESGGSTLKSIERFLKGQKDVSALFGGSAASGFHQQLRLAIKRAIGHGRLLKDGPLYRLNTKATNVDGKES
The E-score of `CACATGTA` is reported as -0.15.
The E-score of `CAAACTAG` is reported as -0.029.
The E-score of `TAATAGAA` is reported as 0.057.
With `GTCATTGA` the E-score was -0.111.
The E-score of `AGTCCAAT` is reported as -0.0519.
The E-score of `AAGTGCCG` is reported as 0.015.
`GGCACCTA` has an E-score of -0.123.
With `AGTCCTTA` the E-score was -0.0573.
`CGTTCAGA` gave an E-score of 0.0049.
For `CGCAAGCG`, the E-score was 0.168.
The E-score of `GAGCCCCA` is reported as 0.0593.
The E-score of `AATGTAGC` is reported as 0.0147.
`CACTGCTC` gave an E-score of 0.0316.
The E-score of `TCGAAAGA` is reported as 0.0906.
The E-score of `ACGCTGCC` is reported as -0.0457.
With `CCGGGAAG` the E-score was 0.0662.
With `GACACGCA` the E-score was 0.178.
`CAAACCTG` gave an E-score of 0.0294.

Study 5 — target: CCND3, cyclin fold, Cln2 fusion (human); method: yeast growth competition, sequencing; matrix: yeast; notes: weak parent motif; reference: not given; reading: higher = stronger binding
Starting sequence: CDC25A docking peptide (human); PPHRRRLLFACSP
For `PPHRRRLLFACSH [P13H]`, “normalised enrichment score” read 0.136.
`PPHRRRLLAACSP [F9A]` — result for “normalised enrichment score”: 0.155.
For `PPHRRRLLFACSS [P13S]`, “normalised enrichment score” read 0.0981.
`PPHRRRLYFACSP [L8Y]`: “normalised enrichment score” 0.176.
`PPHRRRLAFACSP [L8A]` — result for “normalised enrichment score”: 0.135.
`PPHRRRQLFACSP [L7Q]`: “normalised enrichment score” 0.121.
`PPHRRRMLFACSP [L7M]`: “normalised enrichment score” 0.115.
`PPHPRRLLFACSP [R4P]` — result for “normalised enrichment score”: 0.11.
Under “normalised enrichment score”, `PPHRRRLHFACSP [L8H]` is recorded as 0.102.
`HPHRRRLLFACSP [P1H]` — result for “normalised enrichment score”: 0.156.
`PLHRRRLLFACSP [P2L]` — result for “normalised enrichment score”: 0.0499.
`PPHRRRLLFACSQ [P13Q]` — result for “normalised enrichment score”: 0.171.
Under “normalised enrichment score”, `PPHRRRLLFRCSP [A10R]` is recorded as 0.15.
Under “normalised enrichment score”, `PPHRRRLLFARSP [C11R]` is recorded as 0.119.
`PPHRRRLLFACDP [S12D]`: “normalised enrichment score” 0.0908.
Under “normalised enrichment score”, `PPHRMRLLFACSP [R5M]` is recorded as 0.144.
Under “normalised enrichment score”, `PPHRRRLLFACRP [S12R]` is recorded as 0.16.
`PPHRRRLTFACSP [L8T]`: “normalised enrichment score” 0.144.
For `PPHRRRLLHACSP [F9H]`, “normalised enrichment score” read 0.121.
For `PPHRRRLLFACSE [P13E]`, “normalised enrichment score” read 0.158.
`PPHRRILLFACSP [R6I]`: “normalised enrichment score” 0.105.
`PPHRRRLLFACSA [P13A]`: “normalised enrichment score” 0.15.
Under “normalised enrichment score”, `LPHRRRLLFACSP [P1L]` is recorded as 0.058.
For `PPQRRRLLFACSP [H3Q]`, “normalised enrichment score” read 0.111.
`PPHRRRLLFQCSP [A10Q]`: “normalised enrichment score” 0.16.

Study 6 — method: RNA Bind-n-Seq; form: RNA; matrix: in vitro; tested at: 20 nM; notes: 6-mer, flanks averaged, single round; together with: 150 mM LiCl; reference: input library; reading: higher = stronger binding
Target: TAR DNA-binding protein 43, full length, His tag (TARDBP, Homo sapiens, UniProt Q13148, residues 1-414)
`CUGGCA` — result for “6-mer enrichment (R)”: 0.909.
Under “6-mer enrichment (R)”, `ACGUAA` is recorded as 0.828.
`ACCCCU` — result for “6-mer enrichment (R)”: 1.1.
`CGAGAA`: “6-mer enrichment (R)” 0.992.
For `GGAGAU`, “6-mer enrichment (R)” read 1.04.
`UUCUCC` — result for “6-mer enrichment (R)”: 0.993.
Under “6-mer enrichment (R)”, `ACGACC` is recorded as 0.799.
`ACCUUG`: “6-mer enrichment (R)” 0.982.
`GCGCCU` — result for “6-mer enrichment (R)”: 0.981.
Under “6-mer enrichment (R)”, `AAAUUU` is recorded as 1.05.
For `AGGGGU`, “6-mer enrichment (R)” read 1.25.
`GGUGAG`: “6-mer enrichment (R)” 1.4.
`UCAAAG` — result for “6-mer enrichment (R)”: 0.821.
For `UCGUAA`, “6-mer enrichment (R)” read 0.846.
`AUGGAU` — result for “6-mer enrichment (R)”: 0.993.
Under “6-mer enrichment (R)”, `AUGAGU` is recorded as 1.19.
`UUCAAU` — result for “6-mer enrichment (R)”: 0.918.
For `CAGACC`, “6-mer enrichment (R)” read 0.833.
Under “6-mer enrichment (R)”, `AGCACC` is recorded as 0.928.
`CCUGGU` — result for “6-mer enrichment (R)”: 0.977.

Repeated from above (study 5):
`PPHRRILLFACSP [R6I]`: “normalised enrichment score” 0.105.
For `PPQRRRLLFACSP [H3Q]`, “normalised enrichment score” read 0.111.
For `PPHRRRLLFACSH [P13H]`, “normalised enrichment score” read 0.136.
`PPHRRRLLFACSA [P13A]`: “normalised enrichment score” 0.15.
`PPHPRRLLFACSP [R4P]` — result for “normalised enrichment score”: 0.11.
`PPHRRRMLFACSP [L7M]`: “normalised enrichment score” 0.115.
Under “normalised enrichment score”, `PPHRRRLLFRCSP [A10R]` is recorded as 0.15.
Under “normalised enrichment score”, `PPHRRRLLFARSP [C11R]` is recorded as 0.119.
For `PPHRRRLLFACSS [P13S]`, “normalised enrichment score” read 0.0981.
